Measurements from different studies.
Numbered parts are unrelated; each lists some results of a single study.

Series 1
Target: RNA binding protein fox-1 homolog 2, RRM domain, GST-SBP tag (RBFOX2, Homo sapiens, UniProt O43251-10, residues 100-194)
Method: RNA Bind-n-Seq
Molecule type: RNA
Medium: in vitro
Concentration: 365 nM
Setting: natural RNA segment, single round, ends assumed
Reference: no-protein control
Reading: higher = stronger binding
Target sequence (chain): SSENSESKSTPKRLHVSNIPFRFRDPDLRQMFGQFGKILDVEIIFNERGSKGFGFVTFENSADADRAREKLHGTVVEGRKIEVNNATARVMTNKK
| Oligonucleotide | RBNS enrichment (R) |
| --- | --- |
| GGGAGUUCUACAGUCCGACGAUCACGAAGGGAGGUCCUGCUCACUCCAUUUCUUUCGUUUGAAGCAGAAGGGAUGUGUAGCCAGGGAAGGCUCCCUUCACCAGUGUAAAGAGCUGAUACAGUACUCAGAAGACUGGAAUUCUCGGGUGCCAA | 0.302 |
| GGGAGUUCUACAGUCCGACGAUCUUUGCUGCUAACACUGGAGGCGGUGUUCCUAACUGCAGUGUGCUGCUUACACCUCCCCGCGUGGGUAACCAAAUUUUUAAGUAGUCAGAGACAUAUCGAGGUAGUUACAUUGGAAUUCUCGGGUGCCAA | 0.259 |
| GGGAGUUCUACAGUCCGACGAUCUCCUUCCCAGCCCUACUGAAAAGCUUGUUUCUGGGGCCUCCUUCACGGAUUCAUAUGGUACCUUCCUUCUAAACUUGAGGAAGGCAUUUGUCUUCCGGCUGCUCAGGGCUUGGAAUUCUCGGGUGCCAA | 4.63 |
| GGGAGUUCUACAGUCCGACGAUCGUAGAGAAGAGGCACGCUUAUGACUAUUGUUCAAAUACAUAAAAACAGUUAUUUUAAAACAGUCCACAAGAGGGGUGUCUAGUUUUCAGAGACACUUCAGAAACUUUGCUUGGAAUUCUCGGGUGCCAA | 0.554 |
| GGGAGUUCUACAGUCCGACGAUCAAUGGAUUGCAGGGGAAGGAAGGCCCAGGGCCCUGUGUGUCAUGCCCUCUUGGGUUCCUAAGUUCUAUGUUCCUUAGAGGUUCUAGCAUUAAACAGAUAAAGCCCUUCAUUGGAAUUCUCGGGUGCCAA | 0.345 |
| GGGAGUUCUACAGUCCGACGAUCCAAGUAUGGCAAAGCUUAUCCAAUUUUAUGCUUGGAGCAGUCAGUACAUACCAGUUUCUGAUGUUUCAGGCAGGAGUGGGGUAAAUAAGUGUGACCACUUAAAGCUGCUCUGGAAUUCUCGGGUGCCAA | 0.252 |
| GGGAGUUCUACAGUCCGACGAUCAGCAGGUUUGCUGCAGUGUUUUUUUCUGUCCACAUGCAAAUUUUGGAUUCUAUCCCAGACCCAGGUUUUCUAGUUCAGAAGACUAACCAGCUUAGUCAGAAGAUGGUUCCUGGAAUUCUCGGGUGCCAA | 0.354 |
| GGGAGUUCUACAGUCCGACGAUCCCUCUGGUCCUGCAUAUGCAGAGGACGGAGCAGGCUCAGCCCCCUGGAAGAUGAGCUCAAGGGGAGGACAGGCCUUGGGAGGGCAGGCGUUUGCAUUAAUAUCAAGGCAAUGGAAUUCUCGGGUGCCAA | 0.368 |

Series 2
Target: Centromere-binding protein 1, full length, N-terminal tag (CBF1, Saccharomyces cerevisiae, UniProt P17106, residues 1-351)
Sequence of UniProt P17106 (whole entry, looked up): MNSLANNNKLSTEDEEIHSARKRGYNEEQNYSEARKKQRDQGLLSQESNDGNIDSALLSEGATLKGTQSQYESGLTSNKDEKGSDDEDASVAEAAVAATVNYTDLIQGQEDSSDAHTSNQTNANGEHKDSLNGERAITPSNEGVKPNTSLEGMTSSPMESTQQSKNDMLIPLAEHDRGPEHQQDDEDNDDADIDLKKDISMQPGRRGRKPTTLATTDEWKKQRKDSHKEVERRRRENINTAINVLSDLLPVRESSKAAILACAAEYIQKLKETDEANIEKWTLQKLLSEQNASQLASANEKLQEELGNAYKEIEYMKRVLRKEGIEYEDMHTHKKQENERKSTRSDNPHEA
Method: protein-binding microarray
Molecule type: double-stranded DNA, one strand shown
Medium: in vitro
Concentration: 0.8 µM
Setting: whole 60-bp probe, no competitor
Reading: higher = stronger binding
| Oligonucleotide | fluorescence intensity |
| --- | --- |
| GAAAAGAATGTTTGTGACTTCTGCTTCAAATGCTAGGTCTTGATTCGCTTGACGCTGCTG | 553 a.u. |
| CTAAAGCTAATCGTGCACGTAAACAACAATCTATTCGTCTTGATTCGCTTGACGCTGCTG | 532 a.u. |
| CTAATCAAAAAAAAGAACGCCACGTTTGAATTTTTCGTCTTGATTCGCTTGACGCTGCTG | 525 a.u. |
| GAATCGTTTATACGTGACGTTGACGATGGGATTTAGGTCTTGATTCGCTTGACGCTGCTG | 579 a.u. |
| GAATCACAGGCATTCCATGTGATAATGAAATTCTAGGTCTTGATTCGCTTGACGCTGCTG | 1310 a.u. |
| CTAGAGGAGCTTTAAAACATCAGGATAGTGTGCTTCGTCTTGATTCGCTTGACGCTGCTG | 501 a.u. |
| CTATATTTTGCGTATCACACCACATCGTCCCTCTTCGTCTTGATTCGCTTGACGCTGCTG | 676 a.u. |
| CTAAGTGTTAGATCTGAGGTGGTGTTCACATTATTCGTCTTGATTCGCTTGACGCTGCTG | 538 a.u. |
| TGTACGAAGCTATATGCCGTGACTATAGTAGTTAGGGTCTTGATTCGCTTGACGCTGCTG | 633 a.u. |
| CTAGGACGCGCCGCTCACCCGCACGGCAGAGACTTCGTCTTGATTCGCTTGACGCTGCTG | 464 a.u. |
| GAAAGCTTATTCCCGCACGCTCACATGGTAATTTAGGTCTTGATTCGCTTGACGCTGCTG | 1180 a.u. |
| GAATCTTTCTGTGGTCACGACGGTAGCCTCAACTAGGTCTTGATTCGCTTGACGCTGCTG | 1110 a.u. |
| CTAGTAGTTCTGTGAAACGTGTACCCACAATAGTTCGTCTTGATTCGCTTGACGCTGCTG | 600 a.u. |
| GAAAGGCTTTTAAACGTGATTGTGTTGTATCTCTAGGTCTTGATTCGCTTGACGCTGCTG | 753 a.u. |
| CTAACGTAAGTTAAAGGTGACAAGCTCGGATCGTTCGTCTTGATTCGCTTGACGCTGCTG | 573 a.u. |
| GAAAAGAACGGTGTCCACATGGTCTTCGCTTCTTAGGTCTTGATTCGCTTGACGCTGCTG | 694 a.u. |
| GAATCGCCGTTACCCCACGAATCACTTATAACGTAGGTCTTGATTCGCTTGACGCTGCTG | 515 a.u. |

Series 3
Target: RING finger protein unkempt homolog, zinc fingers 1-6, GST-SBP tag (UNK, Homo sapiens, UniProt Q9C0B0, residues 30-357)
Sequence of UniProt Q9C0B0 (30-357, looked up): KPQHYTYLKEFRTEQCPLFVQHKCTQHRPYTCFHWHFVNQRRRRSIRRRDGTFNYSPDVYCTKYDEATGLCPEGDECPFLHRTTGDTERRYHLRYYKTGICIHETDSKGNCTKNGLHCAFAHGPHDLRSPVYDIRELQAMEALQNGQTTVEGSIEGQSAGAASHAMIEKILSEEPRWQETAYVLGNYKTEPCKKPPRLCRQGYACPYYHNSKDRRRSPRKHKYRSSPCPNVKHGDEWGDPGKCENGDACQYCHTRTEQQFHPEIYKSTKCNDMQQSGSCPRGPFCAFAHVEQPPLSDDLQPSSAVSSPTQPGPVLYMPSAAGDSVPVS
Method: RNA Bind-n-Seq
Molecule type: RNA
Medium: in vitro
Concentration: not given
Setting: RNA with constant flanks, human-mouse chimeric sites, ends assumed
Reference: input RNA pool
Reading: higher = stronger binding
| Oligonucleotide | bound/input enrichment [ratio] |
| --- | --- |
| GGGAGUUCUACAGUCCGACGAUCAGAAUCUUGGGACUGUUUUACUUAAUUGGUCAUUGGUAGCUUAACAAACAUGGAGAUAAGAUUAGAAAUCUUGACAUCAACAGGUAUUAAGCAGAAAAAACCCUGGCCACGUGUCUCCUGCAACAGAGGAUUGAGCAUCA | 0.114 |
| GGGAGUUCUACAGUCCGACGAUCGGACAUCUGUCAAAUUGUUAUGUUCCUGUGAAACAAGUGAACACUCUUCAUAUACUAAUCUGCUUGUACAUCUGUAUGAUAGAGAAAUGUAAAUAUGUUAAUCCAAGAUGAAUUCAACUUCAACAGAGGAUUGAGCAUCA | 0.307 |
| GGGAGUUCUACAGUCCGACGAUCGCAAGAGAUGAUGAGGCGGCAGCUGUUGCCCUUUCCUCUCUCGUUCAUGCUUUGGAUGAGUUAAACAUGGUCGCCAUCGUCCGAUAUGCUUAUGACAAAAGAGCUAAUCCUCAAGUUGGUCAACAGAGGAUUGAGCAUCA | 0.116 |
| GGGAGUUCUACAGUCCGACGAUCUUGCUACUGACUCCCUGGGUCAAGUUCCUGUGGGAAUCAUACAGGCAGUGUUUGGACCUUCUUCGAAACAAUUCUAGAGUAGAGCGCCUGUACCAUGAUAUCGCCCAACAAGCUUUCAAACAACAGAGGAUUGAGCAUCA | 0.134 |
| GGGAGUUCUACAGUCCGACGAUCACUCAGAGAUCCACCUCCCAAAGUGCUCUGGAGCUCUGUGUGGCCACUCAAUUCUCCUUGAUGGAUAUAUAUUUUUUUUAAUAUGAAUCUUCCUGUUCGUCCAGGGAAGAAAGAUUUGUUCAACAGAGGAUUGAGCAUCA | 0.633 |
| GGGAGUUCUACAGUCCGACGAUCCUGUGUGUGCUGAAUAAAUGGCUUGUAAAGAAGUUUUUCCAAGCUGUACCCAUGUACGUUAUUAUAGUUGCUGCAAAAUGUUCUUCCUGAUAUUGAUUUUAUUUGUUCUGACUCUCCCUCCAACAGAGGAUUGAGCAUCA | 0.766 |
| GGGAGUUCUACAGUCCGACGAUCGCUGAAAAUGAAGAAGAGGCAGCUGAUGUCUGGUACAACCUGGGGCAUGUAGCUGUGGGAAUCGGAGAUACAAACUUGGCCCACCAAUGCUUCAGGCUGGCCCUGGUCCACAACAACCACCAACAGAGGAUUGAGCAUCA | 0.146 |
| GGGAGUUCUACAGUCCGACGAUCUCAGGAACCCAGACAAACAUGAAUGUAAAUGAAGUCAUUAGCAACAGAGCAAUUGAAAUGUUAGGAGGUGAACUUGGCAGCAAGAUACCUGUGCACCCCAAUGAUCAUGUUAACAAAAGCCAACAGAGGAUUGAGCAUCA | 0.325 |

Series 4
Target: Histone acetyltransferase KAT6A, winged helix 2, GST fusion (KAT6A, Homo sapiens, UniProt Q92794, residues 85-181)
Method: protein binding microarray
Molecule type: double-stranded DNA, one strand shown
Medium: in vitro
Concentration: not given
Setting: 8-mer, flanks averaged, mean of 2 arrays, mostly near background
Reference: not given
Reading: higher = stronger binding
Target sequence (chain): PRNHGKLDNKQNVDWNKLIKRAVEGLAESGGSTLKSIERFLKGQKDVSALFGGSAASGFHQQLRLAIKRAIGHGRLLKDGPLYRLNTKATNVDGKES
| Oligonucleotide | E-score |
| --- | --- |
| TACAGAAA | 0.0562 |
| CCCATATC | -0.0321 |
| CTCTATCC | -0.0618 |
| CACGAGCA | -0.0109 |
| GGTGTTGA | -0.119 |
| AAAAGTGG | 0.0924 |
| ATCTATAC | -0.0367 |
| GAGAGCGC | -0.0247 |
| CCGTATCG | -0.172 |
| ATTACTCG | -0.0173 |
| GCCAGACC | 0.069 |
| CCCATTAG | -0.267 |
| ATCTCAAC | -0.0454 |
| CCCTCGGC | 0.209 |
| GTCCGCGA | 0.0546 |
| ACTTTCGC | -0.0926 |
| ACCCTATG | -0.0307 |
| GCACGATA | 0.0207 |
| GGTTTCAC | -0.0449 |
| CGGCACGA | 0.231 |
| TAATTCCA | 0.0719 |

Some of these lines once more (series 4):
| Oligonucleotide | E-score |
| --- | --- |
| GCCAGACC | 0.069 |
| CCCATTAG | -0.267 |
| ATCTCAAC | -0.0454 |
| CCCTCGGC | 0.209 |
| GTCCGCGA | 0.0546 |
| ACTTTCGC | -0.0926 |
| ACCCTATG | -0.0307 |
| GCACGATA | 0.0207 |
